Results of several laboratories.
Protocols differ between the studies behind these lines.
Target: Dual specificity mitogen-activated protein kinase kinase 4 (MAP2K4, Homo sapiens, UniProt P45985)

For `C=CC(=O)N1Cc2nc(-c3cc(-c4cc(Cl)cnc4Cl)c(F)cc3F)n(-c3ccncn3)c2C1`, the inhibition was 1.1% (cell-free assay, inhibitor; 1 µM).
The remaining binding of `Cc1cnc2nc1Nc1cccc(c1)COC/C=C/COCc1cc(ccc1OCCN1CCOCC1)N2` is reported as 98% (binding, competition with immobilised ligand; 0.1 µM).
For `CN1CCN(Cc2ccc(-c3ccc(CO[C@H]4CCC[C@@H]4NC(=O)c4cc(-c5cnn(C)c5)cnc4N)cc3)cc2)CC1`, the inhibition was 28% (enzyme activity, inhibitor; 0.1 µM).
For `CNC1C[S+]2CC[S+]3CC[S+](C1)[Ru-4]321([N]=C=S)[n]2c3ccc(OC)cc3c3c4c(c5cc(F)c[n+]1c5c32)C(=O)NC4=O` (stereo not drawn), the remaining binding was 100% (KinomeScan; 0.1 µM; relative to: untreated).
The inhibition of `NC(=O)C[C@H]1CCc2sc3ncnc(O[C@H]4CC[C@H](N5CCOCC5)CC4)c3c21` is reported as -2% (enzyme activity, inhibitor; 10 µM).
With `COc1cc(Nc2nc(C)cc(-c3cnn4nc(OC)ccc34)n2)cc(C(F)(F)F)c1` the remaining activity was 74% (inhibitor; 1 µM, MEK4; relative to: control).
`Cc1c[nH]c2nccc(-c3ccc(C(=O)N[C@@H]4c5c(F)cc(C(F)F)cc5C[C@@H]4O)cn3)c12` gave a remaining binding of 2.6% (binding, competition with immobilised ligand; 3 µM).
`Cc1ccc(-c2c(/C=C(\C#N)C(=O)NC(C)C)n(CCCO)c3ncnc(N)c23)cc1` gave a remaining binding of 75% (cell-free assay, competition with immobilised ligand; 1 µM).
With `COc1c(Cl)cccc1Nc1c(-c2ccncc2C#C[C@@]2(C)CCCN2C(=O)/C=C/CN(C)C)[nH]c2c1C(=O)NCC2` the remaining binding was 92% (binding, competition with immobilised ligand; 3 µM).
`C=CC(=O)N1CCCC(n2c(=O)c3ncccc3n(Cc3ccc(Oc4ccccc4)cc3)c2=O)C1` (stereo not drawn) has a remaining binding of 95% (cell-free assay, competition with immobilised ligand; 1 µM).
`COc1c(OCCCN2CCOCC2)ccc2c1N=C(NC(=O)c1cnc(N)nc1)N1CCN=C21` has a remaining activity of 78% (kinase activity, inhibitor; 1 µM; relative to: untreated control).
For `CCCCCC(O)/C=C/C=O` (stereo not drawn), “isoTOP-ABPP competition ratio” read 1.2 (competitive isoTOP-ABPP; Ramos soluble proteome; 100 µM, with: iodoacetamide probe; relative to: DMSO over compound-treated, higher = stronger cysteine blockade).
The remaining binding of `CCN1CCN(Cc2ccc(C(=O)Nc3ccc(C)c(NCc4cnc5[nH]ccc5c4OC)c3)cc2C(F)(F)F)CC1` is reported as 91% (binding, competition with immobilised ligand; 1 µM).
`NC(=O)[C@@H](O)C[C@H]1CCc2sc3ncnc(O[C@H]4CC[C@H](N5CCOCC5)CC4)c3c21` has an inhibition of -3% (enzyme activity, inhibitor; 10 µM).
With `CNC(=O)C1CCN(c2cc(C)c(F)cc2NC(=O)c2ccc(-c3cc(O)ccc3C)c(C)c2)CC1` the remaining binding was 100% (binding, competition with immobilised ligand; 1 µM).
With `C=CC(=O)N1CCc2ccc(-n3c(=O)ccc4cnc5ccc(-c6cnn(C)c6)cc5c43)cc21` the remaining binding was 100% (KINOMEscan; 1 µM; relative to: DMSO control).
`CCCCCCCCCCCCC/C=C/C=O`: “isoTOP-ABPP competition ratio” 1.1 (competitive isoTOP-ABPP; Ramos soluble proteome; 100 µM, with: iodoacetamide probe; relative to: DMSO over compound-treated, higher = stronger cysteine blockade).
For `COc1cc(Nc2nccc(-c3cnn4nc(OC)ccc34)n2)cc(C(F)(F)F)c1`, the remaining binding was 94% (binding, competition with immobilised ligand; 1 µM).
The remaining binding of `CC(C)=CC1OC(C)(C)C2C=C3C(=O)C(Cl)=CC(O)C3C3C(O)C4OC4C(=O)C132` (stereo not drawn) is reported as 81% (cell-free assay, competition with immobilised ligand; 10 µM).
For `Nc1ncc(-c2cc(-c3cnn(CC(F)(F)F)c3)ncc2F)nc1C(=O)NC1CNCC(F)C1` (stereo not drawn), the remaining activity was 97.6% (enzyme activity; 1 µM; relative to: DMSO control).
For `Nc1ncc2c(n1)-c1c([nH]c3ccc(C4=CCOCC4)cc13)CCC2`, the remaining binding was 86% (binding, competition with immobilised ligand; 1 µM).
